Assay results pooled from the literature.
Each line is one published result; not all experiments were run side by side. Numbers after ± are the reported error.
APP amyloid-beta peptide: Amyloid-beta precursor protein, amyloid-beta peptide (APP, Homo sapiens, UniProt P05067)
ALK: ALK tyrosine kinase receptor (ALK, Homo sapiens, UniProt Q9UM73)
IDO1: Indoleamine 2,3-dioxygenase 1 (IDO1, Homo sapiens, UniProt P14902)
ESR1: Estrogen receptor (ESR1, Homo sapiens, UniProt P03372)
VHL with elongin B, C: von Hippel-Lindau disease tumor suppressor, with elongin B, C (VHL, Homo sapiens, UniProt P40337)
Moesin with CD44: Moesin, with CD44 (Homo sapiens, UniProt P26038)
CDK2 part with cyclin A: Cyclin-dependent kinase 2, part with cyclin A (CDK2, Homo sapiens, UniProt P24941)

By UniProt entry, the sequences of proteins in these tests, tags left out. Where a name states a change or a piece, a line headed by the entry shows the natural chain unless it says otherwise. Residues count along the entry.
UniProt P05067, whole entry, looked up: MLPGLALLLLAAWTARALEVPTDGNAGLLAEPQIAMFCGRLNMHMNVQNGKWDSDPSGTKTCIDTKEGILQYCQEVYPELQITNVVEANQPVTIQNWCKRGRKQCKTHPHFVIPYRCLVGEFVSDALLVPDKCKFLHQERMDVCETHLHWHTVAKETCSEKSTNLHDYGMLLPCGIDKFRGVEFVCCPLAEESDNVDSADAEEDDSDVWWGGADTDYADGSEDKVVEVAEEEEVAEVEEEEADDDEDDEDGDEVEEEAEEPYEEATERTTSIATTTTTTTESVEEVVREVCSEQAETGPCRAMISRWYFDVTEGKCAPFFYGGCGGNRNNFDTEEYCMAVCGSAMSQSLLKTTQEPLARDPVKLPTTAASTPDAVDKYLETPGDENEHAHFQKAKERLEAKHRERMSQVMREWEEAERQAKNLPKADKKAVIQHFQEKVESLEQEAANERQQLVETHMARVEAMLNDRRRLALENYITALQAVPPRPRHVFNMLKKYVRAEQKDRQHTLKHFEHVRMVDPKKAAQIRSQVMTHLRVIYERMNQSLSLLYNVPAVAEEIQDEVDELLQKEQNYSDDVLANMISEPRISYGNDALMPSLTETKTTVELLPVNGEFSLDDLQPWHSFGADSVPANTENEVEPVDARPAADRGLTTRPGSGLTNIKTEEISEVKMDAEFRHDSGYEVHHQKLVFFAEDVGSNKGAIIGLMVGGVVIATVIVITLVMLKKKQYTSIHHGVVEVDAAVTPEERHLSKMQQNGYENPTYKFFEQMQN
UniProt P05067, 672-713 limits assumed: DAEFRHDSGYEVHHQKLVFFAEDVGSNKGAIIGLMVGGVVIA
UniProt O88693, whole entry: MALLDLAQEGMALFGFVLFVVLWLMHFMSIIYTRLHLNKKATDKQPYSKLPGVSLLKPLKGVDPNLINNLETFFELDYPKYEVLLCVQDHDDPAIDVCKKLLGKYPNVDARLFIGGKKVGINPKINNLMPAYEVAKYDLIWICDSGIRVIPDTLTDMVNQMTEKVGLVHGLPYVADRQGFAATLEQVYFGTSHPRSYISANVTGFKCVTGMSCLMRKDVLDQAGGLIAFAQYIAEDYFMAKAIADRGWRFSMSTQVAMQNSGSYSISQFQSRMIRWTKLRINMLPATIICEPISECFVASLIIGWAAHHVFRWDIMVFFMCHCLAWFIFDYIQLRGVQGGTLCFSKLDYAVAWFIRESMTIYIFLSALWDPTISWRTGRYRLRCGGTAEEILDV
UniProt A0A8I3MXG6, 1-394: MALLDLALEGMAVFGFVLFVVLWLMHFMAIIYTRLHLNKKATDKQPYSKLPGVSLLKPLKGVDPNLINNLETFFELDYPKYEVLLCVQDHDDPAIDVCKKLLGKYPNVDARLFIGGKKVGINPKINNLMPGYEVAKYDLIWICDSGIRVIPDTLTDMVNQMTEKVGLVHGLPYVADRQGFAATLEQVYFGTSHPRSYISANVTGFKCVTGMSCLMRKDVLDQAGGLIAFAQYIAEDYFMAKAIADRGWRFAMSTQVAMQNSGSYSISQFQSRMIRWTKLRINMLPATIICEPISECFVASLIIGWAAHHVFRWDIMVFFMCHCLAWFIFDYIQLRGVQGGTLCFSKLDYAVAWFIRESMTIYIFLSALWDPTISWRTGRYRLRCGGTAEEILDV
UniProt P07949, whole entry, looked up, stated change not applied: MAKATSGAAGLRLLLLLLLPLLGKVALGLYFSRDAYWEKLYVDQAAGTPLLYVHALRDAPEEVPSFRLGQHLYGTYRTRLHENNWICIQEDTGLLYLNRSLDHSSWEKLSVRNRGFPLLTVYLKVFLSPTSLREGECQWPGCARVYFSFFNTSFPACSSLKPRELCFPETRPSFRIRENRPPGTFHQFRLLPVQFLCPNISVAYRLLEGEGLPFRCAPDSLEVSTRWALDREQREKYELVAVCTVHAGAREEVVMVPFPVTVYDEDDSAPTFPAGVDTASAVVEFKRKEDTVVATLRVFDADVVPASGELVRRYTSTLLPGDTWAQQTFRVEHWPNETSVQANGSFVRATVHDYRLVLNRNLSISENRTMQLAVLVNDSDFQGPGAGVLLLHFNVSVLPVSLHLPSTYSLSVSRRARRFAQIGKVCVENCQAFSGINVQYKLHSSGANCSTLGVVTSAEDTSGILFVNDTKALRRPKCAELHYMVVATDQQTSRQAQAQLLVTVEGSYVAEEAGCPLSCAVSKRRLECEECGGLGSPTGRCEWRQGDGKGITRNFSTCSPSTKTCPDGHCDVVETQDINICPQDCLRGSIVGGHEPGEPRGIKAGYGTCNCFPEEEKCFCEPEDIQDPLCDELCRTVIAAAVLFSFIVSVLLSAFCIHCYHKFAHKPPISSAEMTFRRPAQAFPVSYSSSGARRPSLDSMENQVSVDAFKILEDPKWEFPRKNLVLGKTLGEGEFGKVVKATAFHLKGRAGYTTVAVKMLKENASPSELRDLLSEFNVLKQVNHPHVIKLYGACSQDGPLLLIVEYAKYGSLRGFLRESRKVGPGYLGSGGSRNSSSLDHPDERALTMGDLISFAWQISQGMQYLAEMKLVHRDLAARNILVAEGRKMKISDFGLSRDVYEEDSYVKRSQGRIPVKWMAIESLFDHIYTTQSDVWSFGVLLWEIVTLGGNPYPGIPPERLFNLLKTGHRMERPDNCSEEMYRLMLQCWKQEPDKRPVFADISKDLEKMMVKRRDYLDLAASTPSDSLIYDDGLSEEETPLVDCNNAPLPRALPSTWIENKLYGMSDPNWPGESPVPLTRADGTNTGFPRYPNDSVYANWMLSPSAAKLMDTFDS
UniProt P45985, whole entry: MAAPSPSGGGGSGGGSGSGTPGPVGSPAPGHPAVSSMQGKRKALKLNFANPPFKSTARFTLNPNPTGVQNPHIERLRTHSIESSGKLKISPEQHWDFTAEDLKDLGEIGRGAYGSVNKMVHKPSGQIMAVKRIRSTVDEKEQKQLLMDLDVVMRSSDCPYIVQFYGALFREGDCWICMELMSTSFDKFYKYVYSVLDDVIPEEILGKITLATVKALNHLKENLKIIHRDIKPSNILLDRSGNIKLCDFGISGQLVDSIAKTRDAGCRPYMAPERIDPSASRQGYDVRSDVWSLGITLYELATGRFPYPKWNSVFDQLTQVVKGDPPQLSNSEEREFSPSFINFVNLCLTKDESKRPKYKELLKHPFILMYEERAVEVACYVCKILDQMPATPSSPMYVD
UniProt Q13547, whole entry: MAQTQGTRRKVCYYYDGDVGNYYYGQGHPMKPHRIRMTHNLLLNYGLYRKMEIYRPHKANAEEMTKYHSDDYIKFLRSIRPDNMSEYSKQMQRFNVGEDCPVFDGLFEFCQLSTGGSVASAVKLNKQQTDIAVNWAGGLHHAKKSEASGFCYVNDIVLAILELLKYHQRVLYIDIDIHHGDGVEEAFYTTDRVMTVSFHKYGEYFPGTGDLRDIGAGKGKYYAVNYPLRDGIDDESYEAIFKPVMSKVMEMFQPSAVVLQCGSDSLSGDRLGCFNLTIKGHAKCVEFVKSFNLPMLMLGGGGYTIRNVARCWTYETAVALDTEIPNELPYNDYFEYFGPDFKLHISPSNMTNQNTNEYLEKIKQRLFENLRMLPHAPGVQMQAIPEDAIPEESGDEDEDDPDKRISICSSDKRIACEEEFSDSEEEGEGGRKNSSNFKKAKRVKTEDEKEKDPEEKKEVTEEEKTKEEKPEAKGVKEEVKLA
UniProt P50579, whole entry: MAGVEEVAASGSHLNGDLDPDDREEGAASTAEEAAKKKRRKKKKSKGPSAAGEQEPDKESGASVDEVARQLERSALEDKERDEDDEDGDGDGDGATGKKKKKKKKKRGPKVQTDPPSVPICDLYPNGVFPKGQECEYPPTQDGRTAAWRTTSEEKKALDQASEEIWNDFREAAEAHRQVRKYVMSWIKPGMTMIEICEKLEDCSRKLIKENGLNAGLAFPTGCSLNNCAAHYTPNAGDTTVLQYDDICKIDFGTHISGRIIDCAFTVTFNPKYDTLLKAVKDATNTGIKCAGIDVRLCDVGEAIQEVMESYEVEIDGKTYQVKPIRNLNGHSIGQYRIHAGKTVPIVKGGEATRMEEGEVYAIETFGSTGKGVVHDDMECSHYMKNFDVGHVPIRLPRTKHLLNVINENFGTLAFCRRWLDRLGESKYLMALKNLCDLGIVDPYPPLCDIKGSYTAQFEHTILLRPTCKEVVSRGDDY
UniProt Q5S007, whole entry: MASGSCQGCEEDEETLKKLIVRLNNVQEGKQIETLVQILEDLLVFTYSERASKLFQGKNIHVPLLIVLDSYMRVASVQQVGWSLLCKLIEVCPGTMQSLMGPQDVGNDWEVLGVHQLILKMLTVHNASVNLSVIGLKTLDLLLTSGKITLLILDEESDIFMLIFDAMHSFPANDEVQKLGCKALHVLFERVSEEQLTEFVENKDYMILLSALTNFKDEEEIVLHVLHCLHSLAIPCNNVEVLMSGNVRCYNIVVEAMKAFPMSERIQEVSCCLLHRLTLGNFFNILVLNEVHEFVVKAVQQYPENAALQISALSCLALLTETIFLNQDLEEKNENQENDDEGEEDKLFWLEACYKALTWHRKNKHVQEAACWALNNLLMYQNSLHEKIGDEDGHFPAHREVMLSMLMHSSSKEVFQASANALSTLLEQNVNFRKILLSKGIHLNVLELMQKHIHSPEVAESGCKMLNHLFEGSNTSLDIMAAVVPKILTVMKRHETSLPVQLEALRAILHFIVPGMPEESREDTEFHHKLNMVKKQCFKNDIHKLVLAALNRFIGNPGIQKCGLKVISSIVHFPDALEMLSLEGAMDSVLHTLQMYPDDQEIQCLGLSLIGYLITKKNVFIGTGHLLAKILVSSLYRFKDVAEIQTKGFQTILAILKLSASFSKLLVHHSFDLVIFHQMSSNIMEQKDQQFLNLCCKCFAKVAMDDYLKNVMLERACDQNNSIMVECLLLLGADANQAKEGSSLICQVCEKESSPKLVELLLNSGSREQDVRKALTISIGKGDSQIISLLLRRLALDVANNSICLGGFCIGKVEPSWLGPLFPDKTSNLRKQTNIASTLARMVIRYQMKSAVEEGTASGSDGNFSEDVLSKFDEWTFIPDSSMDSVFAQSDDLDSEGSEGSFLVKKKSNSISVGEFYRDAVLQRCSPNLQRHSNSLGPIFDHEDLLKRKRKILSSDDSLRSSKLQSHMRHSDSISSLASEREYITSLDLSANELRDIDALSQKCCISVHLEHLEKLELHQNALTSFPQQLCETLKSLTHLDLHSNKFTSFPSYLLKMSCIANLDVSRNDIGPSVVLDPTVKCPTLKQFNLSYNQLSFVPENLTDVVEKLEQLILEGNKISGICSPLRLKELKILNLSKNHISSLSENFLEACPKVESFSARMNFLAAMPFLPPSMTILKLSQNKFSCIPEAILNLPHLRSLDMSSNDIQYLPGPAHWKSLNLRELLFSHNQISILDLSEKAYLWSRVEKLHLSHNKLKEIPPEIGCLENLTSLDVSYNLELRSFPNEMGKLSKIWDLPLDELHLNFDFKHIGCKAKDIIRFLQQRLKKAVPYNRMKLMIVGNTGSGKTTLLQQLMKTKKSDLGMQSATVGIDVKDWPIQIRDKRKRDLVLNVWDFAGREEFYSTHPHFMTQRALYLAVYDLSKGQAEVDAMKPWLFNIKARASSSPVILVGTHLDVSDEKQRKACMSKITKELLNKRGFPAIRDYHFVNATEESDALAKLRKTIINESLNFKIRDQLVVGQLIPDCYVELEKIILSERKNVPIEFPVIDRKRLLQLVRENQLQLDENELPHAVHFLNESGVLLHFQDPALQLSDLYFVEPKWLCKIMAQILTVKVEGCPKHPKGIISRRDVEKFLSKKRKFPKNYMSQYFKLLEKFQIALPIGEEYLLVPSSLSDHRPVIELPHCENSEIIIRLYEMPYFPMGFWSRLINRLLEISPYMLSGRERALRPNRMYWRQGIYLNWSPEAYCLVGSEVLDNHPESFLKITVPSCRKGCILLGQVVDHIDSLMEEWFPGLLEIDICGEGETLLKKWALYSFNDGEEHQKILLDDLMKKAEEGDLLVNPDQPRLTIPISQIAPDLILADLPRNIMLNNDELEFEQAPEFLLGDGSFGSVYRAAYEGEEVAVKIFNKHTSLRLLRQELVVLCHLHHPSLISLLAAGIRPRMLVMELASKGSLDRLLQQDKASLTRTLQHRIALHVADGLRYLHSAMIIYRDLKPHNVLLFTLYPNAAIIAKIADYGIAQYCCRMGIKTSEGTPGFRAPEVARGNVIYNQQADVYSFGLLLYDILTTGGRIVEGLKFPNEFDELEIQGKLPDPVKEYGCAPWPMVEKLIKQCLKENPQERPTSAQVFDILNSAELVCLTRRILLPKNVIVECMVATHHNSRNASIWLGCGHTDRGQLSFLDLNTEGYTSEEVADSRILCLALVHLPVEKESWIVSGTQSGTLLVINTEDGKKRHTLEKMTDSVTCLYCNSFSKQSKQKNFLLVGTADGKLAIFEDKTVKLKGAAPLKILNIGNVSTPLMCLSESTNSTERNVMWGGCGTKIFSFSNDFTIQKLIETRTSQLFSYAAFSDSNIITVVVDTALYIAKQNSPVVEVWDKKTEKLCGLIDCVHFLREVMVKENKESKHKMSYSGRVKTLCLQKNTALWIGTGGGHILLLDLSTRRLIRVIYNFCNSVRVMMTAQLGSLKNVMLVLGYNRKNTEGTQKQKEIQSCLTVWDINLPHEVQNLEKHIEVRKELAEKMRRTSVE

For O=C1NC(=O)C(Cc2ccc(OCCNc3ccccn3)cc2)S1 (stereo not drawn), the IC50 was 5.1 ± 1 µM (ACSL4 (Homo sapiens, UniProt O60488); enzyme activity, inhibitor, EnzChek pyrophosphate).
The IC50 of O=C1OC2CC1N(C(=O)c1cc(Cc3n[nH]c(=O)c4ccccc34)ccc1F)C2 (stereo not drawn) is reported as 0.000544 µM (PARP1 (Homo sapiens, UniProt P09874); enzyme activity; experiment Exp1).
OC[C@H]1[C@@H](O)[C@H](O)[C@@H](O)CN1CCCCCOCc1ccc(Br)cc1 has an IC50 of 0.021 µM (Ugcg (Mus musculus, UniProt O88693); inhibitor, C6-NBD-ceramide in situ; RAW264.7).
Clc1ccc(C2(c3ccc(-c4cccnc4)cc3)CCNCC2)cc1 gave an IC50 of over 10 µM (LATS1 (Homo sapiens, UniProt O95835); kinase activity, inhibitor, radiometric HotSpot; added: ATP 10 µM).
For CN(C)CCCNc1c2ccc(N(C)C)cc2nc2cc(N(C)C)ccc12, the IC50 was 2.53 µM (ERN1 (Homo sapiens, UniProt O75460); RNase activity, inhibitor, FRET; 90 min preincubation, added: XBP-1 RNA).
Fc1cccc(/C=C/c2c[nH]c3ccc(F)cc23)c1 has an IC50 of over 20 µM (APP amyloid-beta peptide; Aβ42 oligomerisation, ELISA).
C[C@H](NC(=O)c1cc(C(=O)O)cc([C@H]2CCN[C@@H]2C(=O)O)c1)C(=O)O has an IC50 of 1.64 ± 0.07 µM (Glutamate receptor ionotropic, NMDA 2A, with GluN1 (Grin2a, Rattus norvegicus, UniProt Q00959); ion current, antagonist, two-electrode voltage clamp; Xenopus oocytes; GluN1/GluN2A, added: glycine 100 µM and glutamate 1 µM).
With O=C(CC1Cc2ccccc2C1)N[C@H](CN1CC[C@@H](F)C1)[C@H](O)c1ccc(OC(F)(F)F)cc1 the IC50 was over 0.3 µM (UGCG (Canis lupus familiaris, UniProt A0A8I3MXG6); enzyme activity, inhibitor; MDCK cell homogenate membranes).
With COc1ccc2nc3ccc(OC)cc3c(SCCN)c2c1 the IC50 was 0.29 µM (DYRK2 (Homo sapiens, UniProt Q92630); inhibitor; added: Woodtide peptide).
The IC50 of CN1CCN(Cc2ccc(NC(=O)c3cncc(C#Cc4c(N)ncc5ccc(F)cc45)c3)cc2C(F)(F)F)CC1 is reported as 0.00285 ± 0.0001 µM (Kinesin-1 heavy chain/ Tyrosine-protein kinase receptor RET (RET/KIF5B, Homo sapiens, UniProt P07949+P33176, G810A); cell viability, inhibitor, CellTiter-Glo; Ba/F3 KIF5B-RET G810A).
NC(=O)c1cccc(-c2n[nH]c3cccc(Cl)c23)c1 has an IC50 of 1.3 µM (MAP2K4 (Homo sapiens, UniProt P45985); enzyme activity, ADP-Glo; added: p38α substrate).
For CN1CC[C@H](c2c(O)cc(O)c3c(=O)cc(-c4cccnc4)oc23)[C@H](O)C1, the IC50 was 0.0055 µM (Cyclin-dependent kinase 9, with cyclin T1 (CDK9, Homo sapiens, UniProt P50750); inhibitor; with cyclin T1, GST-CTD substrate).
With O=C(CCc1ccc(O)cc1O)c1ccc(O)cc1 the IC50 was over 10 µM (ALOX5 (Homo sapiens, UniProt P09917); enzyme activity; cell-free).
For CN(C)c1ccc(CCCN2CCc3ccc(/C=C/C(=O)NO)cc3C2=O)cc1, the IC50 was under 0.1 µM (HDAC1 (Homo sapiens, UniProt Q13547); enzyme activity, inhibitor).
The IC50 of CC(=O)Nc1ccc(/C=C/c2c[nH]c3ccc(C#N)cc23)cc1 is reported as 4 µM (APP amyloid-beta peptide; Aβ42 oligomerisation, ELISA).
The IC50 of Cc1ccc(N=Nc2cc(S(=O)(=O)O)cc(S(=O)(=O)O)c2O)c(C)c1 is reported as 41 µM (ALK; ELISA).
For COc1ccc2[nH]cc(/C=C/c3ccc([N+](=O)[O-])cc3F)c2c1, the IC50 was over 100 µM (IDO1; enzyme activity, inhibitor).
The IC50 of CSc1cc(NC(=O)c2ccccn2)ccc1Cl is reported as over 30 µM (GRM1 (Homo sapiens, UniProt Q13255); antagonist).
COc1ccc2[nH]cc(/C=C/c3ccc(NS(C)(=O)=O)cc3)c2c1 has an IC50 of over 100 µM (IDO1; enzyme activity, inhibitor).
The IC50 of O=C(O)c1ccnc(C(=O)O)c1Nc1ccc(F)cc1F is reported as 48 µM (KDM4E (Homo sapiens, UniProt B2RXH2); inhibitor, FDH-coupled spectrophotometry, measured: formaldehyde).
For CC(=NNC(=N)N)c1ccc(NC(=O)c2c[nH]c3ccccc23)cc1, the IC50 was over 100 µM (RPS6KA3 (Homo sapiens, UniProt P51812); kinase activity, inhibitor, IMAP fluorescence polarisation; 60 min).
COc1cc2ncnc(N[C@H](C)c3ccccc3)c2cc1OC has an IC50 of 1.3 µM (Son of sevenless homolog 1, with KRAS (SOS1, Homo sapiens, UniProt Q07889); KRAS binding displacement, inhibitor; GDP-dependent KRAS).
For COc1cc(N)c2ncccc2c1Cl, the IC50 was over 15 µM (Methionine aminopeptidase 2 (Homo sapiens, UniProt P50579); enzyme activity, inhibitor, coupled; added: Met-Pro-pNA substrate, Mn2+ 10 µM).
For CC(C)(C(=O)/C=C/c1ccc(O)c(OC(F)(F)F)c1)C(=O)/C=C/c1ccc(O)c(OC(F)(F)F)c1, the IC50 was 10.2 µM (Amyloid-beta precursor protein, Aβ aggregates (APP, Homo sapiens, UniProt P05067); binding, thioflavin T competition).
With N#Cc1ccccc1N1CCN(C(=O)CCCn2c(=S)[nH]c3ccccc3c2=O)CC1 the IC50 was 7.5 µM (ESR1; reporter gene, coactivator binding inhibitor, luciferase reporter; HEC-1 cells transfected with ERα; toxicity up to 50% at 20 µM, added: estradiol 1 nM).
C=CCN(CC=C)C(=O)Oc1ccccc1C=C1Cc2cc(OC)c(OC)cc2C1=O gave an IC50 of 0.0758 ± 0.00477 µM (Cocaine esterase (CES2, Homo sapiens, UniProt O00748); inhibitor; 33 min preincubation, added: fluorescein diacetate).
For Cc1c(N)cccc1C(=O)N1C[C@H](O)C[C@H]1C(=O)NCc1ccc(-c2cnco2)cc1, the IC50 was 18.9 ± 2.3 µM (VHL with elongin B, C; binding, fluorescence polarization; 10% DMSO, added: FAM-HIF1α peptide tracer).
O=C(O)c1cc(C(=O)N[C@@H](CS)C(=O)O)cc([C@H]2CCN[C@@H]2C(=O)O)c1 has an IC50 of 10 to 50 µM (kainate receptor (rat); binding, radioligand binding; rat cortical synaptosomes; added: [3H]kainate).
The IC50 of COc1cc2nccc(Nc3ccc(NC(C)=O)cc3)c2cc1OC is reported as over 50 µM (PKN3 (Homo sapiens, UniProt Q6P5Z2); binding, split-luciferase).
CC(C)Oc1cc(C(=O)N2CCC(N3CCN(C)CC3)CC2)ccc1Nc1ncc2c(n1)N(C(C)C)c1ccccc1C(=O)N2C gave an IC50 of 0.235 ± 0.034 µM (LRRK2 (Homo sapiens, UniProt Q5S007); kinase activity, Adapta).
CC(C)NC(=O)CSc1nc2ccc(NC(=O)CSc3ccccc3C(F)(F)F)cc2s1 has an IC50 of 20 to 50 µM (ESR1; reporter gene, antagonist; HEC-1 transfected ERα luciferase reporter).
Cc1ccc(NC(=O)c2cc3ccccc3c(N=Nc3cc(S(=O)(=O)O)ccc3O)c2O)c(C)c1 has an IC50 of 27.3 µM (Bcl-2-related protein A1 (Mus musculus, UniProt Q07440, C113S/P104K); binding, inhibitor, fluorescence polarization competition; 3 µM Bfl-1/A1 protein, added: 375 nM FITC-Noxa peptide).
Cc1ccc(C(=O)Nc2ccc(-c3nc4ccccc4[nH]3)cc2)cc1 has an IC50 of over 100 µM (Moesin with CD44; MSN-CD44 interaction, inhibitor, TR-FRET; added: CD44).
The IC50 of Cc1ccc(C(NS(=O)(=O)c2cccs2)C(=O)Nc2ccc(Cl)cc2)cc1 (stereo not drawn) is reported as 8.66 ± 0.54 µM (Uracil nucleotide/cysteinyl leukotriene receptor, long isoform (GPR17, Homo sapiens, UniProt Q13304); calcium mobilization, antagonist; 1321-N1).
C=Cc1cccc(-c2cc(=O)c3c(O)cc(O)c([C@H]4CCN(C)C[C@H]4O)c3o2)c1 has an IC50 of 0.13 µM (CDK2 part with cyclin A; enzyme activity, inhibitor; with cyclin A, added: histone H1 substrate).
For Nc1ccc(C(=O)N2C[C@H](O)C[C@H]2C(=O)NCc2ccc(Cl)cc2)cc1, the IC50 was 29 ± 3 µM (VHL with elongin B, C; binding, fluorescence polarization; 10% DMSO, added: FAM-HIF1α peptide tracer).
COC(=O)[C@@H]1C(c2nc3ccccc3o2)=Cc2cc3c(cc2[C@H]1c1cc(OC)c(OC)c(OC)c1)OCO3 gave an IC50 of 1.51 µM (Tubulin alpha/beta heterodimer (Leishmania infantum, UniProt A0A381MCS3+A4HTR0); tubulin polymerization, inhibitor; 37 °C, added: tubulin 1.2 mg/mL).
The IC50 of CN1C(=S)Cc2ccccc21 is reported as 20.3 ± 2.09 µM (CA2 (Homo sapiens, UniProt P00918); inhibitor).
NC(=O)c1ccc(-c2cc3c(nn2)-c2ccccc2C3=O)cc1 has an IC50 of 35 µM (ALK; ELISA).
CS(=O)(=O)Oc1cccc(/C=C/c2c[nH]c3ccc(F)cc23)c1 has an IC50 of 17.8 µM (APP amyloid-beta peptide; Aβ42 oligomerisation, ELISA).
C[C@H](Nc1nc(N[C@@H](C)C2CC2)nc(-c2cccc(C(F)(F)F)n2)n1)C1CC1 gave an IC50 of 0.059 µM (Isocitrate dehydrogenase [NADP] cytoplasmic, homodimer (IDH1, Homo sapiens, UniProt O75874, R132H); enzyme activity, inhibitor, diaphorase/resazurin coupled).
For CN1CCC[C@@H]1C(=O)N[C@@H](Cc1ccccc1)B(O)O, the IC50 was over 10 µM (Proteasome subunit beta type-2, β2 subunit (Plasmodium falciparum, UniProt Q8I261+Q8I6T3); enzyme activity, inhibitor; added: Ac-WLR-AMC).
The IC50 of O=C(Nc1ccc(-c2nc3ccccc3[nH]2)cc1)c1ccccc1F is reported as over 100 µM (Moesin with CD44; MSN-CD44 interaction, inhibitor, TR-FRET; added: CD44).
The IC50 of C[C@@H](CC(=O)NCc1cccc2ccccc12)NC(=O)[C@H](CC(=O)NC(C)(C)C)NC(=O)OC(C)(C)C is reported as 0.135 ± 0.022 µM (Proteasome component C5/PSMB8 (Homo sapiens, UniProt P20618+P28062); enzyme activity, inhibitor; added: Ac-ANW-AMC).
CN1CC[C@H](c2c(O)cc(O)c3c(=O)cc(-c4cccc(Cl)c4)oc23)[C@H](O)C1 has an IC50 of 0.164 µM (CDK2 part with cyclin A; enzyme activity, inhibitor; with cyclin A, added: histone H1 substrate).
